Published values from different studies.
Lines come from different studies, so protocols differ.

With `NC(=O)c1cnc2[nH]ccc2c1N[C@@H]1[C@@H]2CC3C[C@H]1C[C@@](O)(C3)C2` the percent change was 0.08% (CD4+ central memory T cells, flow cytometry; Caucasian humans, peripheral blood; 200 mg single dose; reference: baseline).
The killing of `CC1=C(Cc2cn(CCN3CCN(C(=O)OC(C)(C)C)CC3)nn2)C(=O)c2ccccc2C1=O` is reported as 49.9% (Schistosoma mansoni; adult worms; 25 µM, 72 h).
`CN1CCN(c2ccc(-c3ccc4c(Nc5ncccn5)cnnc4c3)cc2)CC1` — result for “phenotypic severity score”: 0 (Schistosoma mansoni; adult worms; 10 µM, 1 h; direction not given).
`O=C(NC[C@H]1CN(c2ccc(N3CCOCC3=O)cc2)C(=O)O1)c1ccc(Cl)s1` gave an inhibition of -31.4% (Nedd8-cullin1 interaction; neddylation, AlphaScreen; 100 µM).
With `CC1=C(Cc2cn(CC#N)nn2)C(=O)c2ccccc2C1=O` the killing was 44.8% (Schistosoma mansoni; adult worms; 25 µM, 48 h).
For `CC(C)NCC(O)COc1ccc(COCCOC(C)C)cc1` (stereo not shown), the inhibition was 2.3% (Nedd8-cullin1 interaction; neddylation, AlphaScreen; 100 µM).
For `O=C(/C=C/C=C/C=C/C1CCCCC1)NC1=C[C@@](O)(/C=C/C=C/C=C/C(=O)NC2=C(O)CCC2=O)[C@@H]2O[C@@H]2C1=O`, the GI50 was 18900 nM (Calu-6; cell growth, CellTiter-Glo; 78 h).
Under “phenotypic severity score”, `Cc1ccc(Nc2cnnc3ccc(-c4ccc(N5CCN(C)CC5)cc4)cc23)cn1` is recorded as 1 (Schistosoma mansoni; adult worms; 10 µM, 5 h; direction not given).
`CCN(c1cc(C#CCN2CCOCC2)cc(C(=O)NCc2c(C)cc(C)[nH]c2=O)c1C)[C@H]1CC[C@H](N(C)CCOC)CC1`: IC50 “inactive” (HD-MB03; reference: DMSO).
With `CC1=C(Cn2ccnn2)C(=O)c2ccccc2C1=O` the killing was 54.9% (Schistosoma mansoni; adult worms; 25 µM, 72 h).
Under “mice with adult worms”, `C[C@H]1c2cccc(O)c2C(=O)C2=C(O)[C@]3(O)C(=O)C(C(N)=O)=C(O)[C@@H](N(C)C)[C@@H]3[C@@H](O)[C@@H]21` is recorded as 89% (Brugia malayi; SCID mouse; x42d dosing, 6 weeks post-treatment).
`COc1ccc(Nc2cnnc3ccc(-c4cnc(N5CCN(C)CC5)nc4)cc23)cc1Cl` — result for “phenotypic severity score”: 0 (Schistosoma mansoni; adult worms; 10 µM, 1 h; direction not given).
`Cc1n[nH]c2ccc(-c3cc(OC[C@@H](N)Cc4ccccc4)cnc3-c3ccoc3)cc12` — result for “log2 fold change”: -0.539 (kinase binding, competitor, MIB/MS competition, item: YPK1; Candida albicans cell lysate; 1 µM; reference: DMSO).
`C[C@H](Oc1ccc(Br)cc1-c1ccon1)C(=O)O`: “peak amplitude change” -1.64% (muscle velocity recovery cycles; human, tibialis anterior muscle; 400 mg twice daily, multiple doses, frequency ramp, first response at 15 Hz; reference: placebo).
For `O=C(O)CNC(=O)Cc1ccccc1`, the sarcomere length was 1.72 µm (ventricular cardiomyocytes, C57BL/6 mouse; dose not given, 0.044 s).
`COC(=O)CCc1ccc(OCC(O)CNC(C)C)cc1` (stereo not shown) has an inhibition of 2.3% (Nedd8-cullin1 interaction; neddylation, AlphaScreen; 100 µM).
Under “change, Alpha EEG power, in O2-Pz”, `OC(CCN1CCCCC1)(c1ccccc1)C1CC2C=CC1C2` (stereo not shown) is recorded as 13.8% (resting-state EEG; healthy elderly humans; oral, 2 mg, eyes open, LS mean; reference: baseline).
For `N=C(N)NC(=O)Cc1c(Cl)cccc1Cl`, the inhibition was -36.3% (Nedd8-cullin1 interaction; neddylation, AlphaScreen; 100 µM).
`CC(=O)N1CCC(Nc2cc(C(=O)NC[C@H](O)CN3CCc4ccccc4C3)ncn2)CC1` gave an IC50 of 126 nM (HD-MB03; cell growth; 168 h, DMSO).
`CC1=C(Cc2cn(CCN3CCNCC3)nn2)C(=O)c2ccccc2C1=O` gave a killing of 48.5% (Schistosoma mansoni; adult worms; 25 µM, 48 h).
With `CC(C)NCC(O)c1ccc(O)c(O)c1` (stereo not shown) the sarcomere length was 1.72 µm (ventricular cardiomyocytes, C57BL/6 mouse; dose not given, 0.324 s).
The EC50 of `COc1cnc2cccc(N3CCc4c(cc(Cn5ccnc5C)cc4-c4cn(C)nc4C(F)(F)F)C3=O)c2c1` is reported as greater than 30000 nM (NCI-H661; cell growth, inhibitor; 120 h).
With `CN(CCO)CC(O)Cn1cnc2c1c(=O)n(C)c(=O)n2C.O=C(O)c1cccnc1` (stereo not shown) the inhibition was -3.3% (Nedd8-cullin1 interaction; neddylation, AlphaScreen; 100 µM).
The IC50 of `Cc1c(CN2CCN(C(=O)[C@H](C)O)CC2)sc2c(N3CCOCC3)nc(-c3cnc(N)nc3)nc12` is reported as 6.6 ng/mL (phospho-Akt; Akt phosphorylation, inhibitor; human patients with pleural carcinoma, plasma; PK-PD study).
`CN1CCN(S(=O)(=O)c2ccc(-c3ccc4nncc(Nc5ncccn5)c4c3)cc2)CC1`: “phenotypic severity score” 0 (Schistosoma mansoni; adult worms; 10 µM, 5 h; direction not given).
`Cc1[nH]c2ccccc2c1CCNCc1ccc(/C=C/C(=O)NO)cc1` gave an IC50 of 16.1 nM (HD-MB03; cell growth; 168 h, DMSO).
Under “phenotypic severity score”, `COc1ccc(Nc2cnnc3ccc(-c4ccc(S(=O)(=O)N5CCN(C)CC5)cc4)cc23)cc1Cl` is recorded as 1 (Schistosoma mansoni; adult worms; 10 µM, 48 h; direction not given).
`CC1=C(Cn2cc(CN(Cc3ccccc3)Cc3ccccc3)nn2)C(=O)c2ccccc2C1=O` gave a killing of 45.2% (Schistosoma mansoni; adult worms; 25 µM, 24 h).
`CN1CCN(S(=O)(=O)c2ccc(-c3ccc4c(Nc5ncccn5)cnnc4c3)cc2)CC1`: “phenotypic severity score” 0 (Schistosoma mansoni; adult worms; 10 µM, 5 h; direction not given).
With `NCc1ccc(C(=O)O)cc1` the inhibition was 16.5% (Nedd8-cullin1 interaction; neddylation, AlphaScreen; 100 µM).
The EC50 of `CCn1cc(-c2cc(Cn3ccnc3)cc3c2CCN([C@H](c2cc(OC)ccn2)C2CC2)C3=O)c(C(F)(F)F)n1` is reported as greater than 30000 nM (HCT-8; cell growth, inhibitor; 120 h).
`CC(=O)CCCCn1c(=O)c2c(ncn2C)n(C)c1=O` has an inhibition of -12.4% (Nedd8-cullin1 interaction; neddylation, AlphaScreen; 100 µM).
For `CC1=C(Cc2cn(CCOS(=O)(=O)c3ccc(C)cc3)nn2)C(=O)c2ccccc2C1=O`, the killing was 43.1% (Schistosoma mansoni; adult worms; 10 µM, 72 h).
`CCn1cc(-c2cc(Cn3ccoc3=N)cc3c2CCN([C@@H](C)c2cc(OC)ccn2)C3=O)c(C(F)(F)F)n1` gave an EC50 of 310 nM (AU565; cell growth, inhibitor; 120 h).
`CC1=C(Cn2cc(CBr)nn2)C(=O)c2ccccc2C1=O` has a killing of 50% (Schistosoma mansoni; adult worms; 25 µM, 72 h).
`COc1ccc(Nc2cnnc3ccc(-c4cnc(N5CCCN(C)CC5)nc4)cc23)cc1Cl` — result for “phenotypic severity score”: 1 (Schistosoma mansoni; adult worms; 10 µM, 5 h; direction not given).
`CC1=C(Cn2cncn2)C(=O)c2ccccc2C1=O` has a killing of 44.4% (Schistosoma mansoni; adult worms; 10 µM, 48 h).
For `Cn1cc(-c2ccc(-c3cncc(Cl)c3N3CCC4(CCNC4=O)CC3)cc2)cn1`, “log2 fold change” read 2.39 (COLO 205; gene expression, microarray, item: TLR3 mRNA; concentration not given, 2 h; reference: untreated cells).
`COc1ccc(Nc2cnnc3cc(-c4cnc(N5CCCN(C)CC5)nc4)ccc23)cc1Cl` — result for “phenotypic severity score”: 0 (Schistosoma mansoni; adult worms; 10 µM, 5 h; direction not given).
With `Cc1nc(C)c(C)nc1C.O=P(O)(O)O` the inhibition was 44% (Nedd8-cullin1 interaction; neddylation, AlphaScreen; 100 µM).

Some of these lines once more:
`COC(=O)CCc1ccc(OCC(O)CNC(C)C)cc1` (stereo not shown) has an inhibition of 2.3% (Nedd8-cullin1 interaction; neddylation, AlphaScreen; 100 µM).
With `CC1=C(Cn2ccnn2)C(=O)c2ccccc2C1=O` the killing was 54.9% (Schistosoma mansoni; adult worms; 25 µM, 72 h).
